Experimental data gathered from unrelated publications.
Protocols differ between the studies behind these lines.
Organism: Bacillus subtilis

SMILES | observed | technique | strain | time | temperature | together with | MIC
CN(C)c1ccc2c(CC(=O)NCCCn3cc(CCCCC(=O)Oc4ccccc4C(=O)c4cc(Cl)c(Cl)n4-c4c(C(=O)c5ccccc5O)[nH]c(Cl)c4Cl)nn3)cc(=O)oc2c1 | microbial growth | broth dilution | 168 | 20 h |  |  | 1 µg/mL
CC1C=CC=CC(C)C2C=CC3CC(C)(O)C(F)C(C)C3C2C(=O)C(Cl)(Cl)C(=O)C(C)C(=O)O1 (centres unmarked) | microbial growth | broth dilution |  |  |  |  | 0.2 µg/mL
CCCCCCCCCCCCCCCCCCCCCCSCC1OC(OC2C(N)CC(N)C(OC3OC(CN)C(O)CC3N)C2O)C(O)C(N)C1O (centres unmarked) |  |  | 168 |  |  |  | 150 µg/mL
FC(F)(F)c1cc(CSc2nnc(C34CC5CC(CC(C5)C3)C4)n2-c2ccccc2)cc(C(F)(F)F)c1 |  | two-fold dilution | IFO 3007 | 24 h | 36 °C |  | 0.5 µg/mL
CN(C)C(=N)NC(=N)N.CN(C)C(=N)NC(=N)N.[Cu+2].[O-][Cl+3]([O-])([O-])[O-].[O-][Cl+3]([O-])([O-])[O-] |  | broth microdilution |  |  |  |  | 128 µg/mL
Cn1c(Cl)c(Cl)c(-n2c(C(=O)c3ccccc3O)cc(Cl)c2Cl)c1C(=O)c1ccccc1O | microbial growth | broth dilution | 168 | 20 h |  |  | > 64 µg/mL
CN[C@H](CC(C)C)C(=O)N[C@H]1C(=O)N[C@@H](CC(N)=O)C(=O)N[C@H]2C(=O)N[C@H]3C(=O)N[C@H](C(=O)N[C@H](C(=O)O)c4cc(O)cc(O)c4-c4cc3ccc4O)[C@H](O)c3ccc(c(Cl)c3)Oc3cc2cc(c3O[C@@H]2O[C@H](CO)[C@@H](O)[C@H](O)[C@H]2O[C@H]2C[C@](C)(NCc3ccc(C(=O)OCCCCCCN(Cc4ccccn4)Cc4ccccn4)cc3)[C@H](O)[C@H](C)O2)Oc2ccc(cc2Cl)[C@H]1O | microbial growth |  |  |  |  |  | 0.2 µM
CN1CCC(NCCC2(Cc3ccc(Cl)cc3)CCCCC2)CC1 | microbial growth |  | 168 | 10 h |  |  | 100 µM
CC1C=CC=CC(C)C2C=CC3CC(C)(O)C(OCc4ccccc4)C(C)C3C2C(=O)C(Cl)(Cl)C(=O)C(C)C(=O)O1 (centres unmarked) | microbial growth | broth dilution |  |  |  |  | 0.4 µg/mL
COC(=O)CCCCc1cn(CCCNC(=O)CCc2ccc3n2[B-](F)(F)[N+]2=C(C)C=C(C)C2=C3)nn1 | microbial growth | broth dilution | 168 | 20 h |  |  | > 64 µg/mL
CCCCCCCCCCCC[S+]([O-])CC1OC(OC2C(N)CC(N)C(OC3OC(CN)C(O)CC3N)C2O)C(O)C(N)C1O (mixture of isomers) |  |  | 168 |  |  |  | 4.7 µg/mL
C[C@@H]1C(=O)O[C@@H](C)/C=C/C=C\[C@@H](C)[C@@H]2C=C[C@@H]3C[C@]4(C)O[C@@H]4[C@@H](C)[C@H]3[C@@H]2C(=O)C(Cl)(Cl)C1=O | microbial growth | broth dilution |  |  |  |  | 0.0125 µg/mL
COc1ccc(-c2cc(C(F)(F)F)n3nc(N)nc3n2)cc1OC |  | broth microdilution | 3610 | 20 h | 37 °C |  | > 128 µg/mL
CN(C)c1ccc2c(CC(=O)NCCCn3cc(CCCCC(=O)Oc4c(Cl)cc(Cl)cc4-c4[nH]c(Cl)c(Cl)c4Cl)nn3)cc(=O)oc2c1 | microbial growth | broth dilution | 168 | 20 h |  |  | 0.25 µg/mL
CC1C=CC=CC(C)C2C=CC3CC(C)(O)C(O)C(C)C3C2C(=O)C(Cl)(Cl)C(=O)C(C)C(=O)O1 (centres unmarked) | microbial growth | broth dilution |  |  |  |  | > 6.4 µg/mL
C/C(=N\Nc1nc(-c2ccc(Cl)cc2)cs1)c1ccc2c(c1)sc1nc(=O)c(C#N)cn12 | microbial growth | broth dilution |  |  |  |  | < 72 µg/mL

SMILES | observed | technique | strain | time | temperature | together with | MIC
Oc1c(Cl)cc(Cl)c2cccnc12 | microbial growth | agar dilution | ATCC6633 |  |  |  | 37.4 µM
O=[N+]([O-])c1ccc(CSc2nnc(C34CC5CC(CC(C5)C3)C4)n2-c2ccccc2)cc1 |  | two-fold dilution | IFO 3007 | 24 h | 36 °C |  | 8 µg/mL
CC1C=CC=CC(C)C2C=CC3CC(C)(O)C(O[N+](=O)[O-])C(C)C3C2C(=O)C(Cl)(Cl)C(=O)C(C)C(=O)O1 (centres unmarked) | microbial growth | broth dilution |  |  |  |  | 0.025 µg/mL
COc1ccccc1N1CCN(Cn2nc(C34CC5CC(CC(C5)C3)C4)n(-c3ccccc3)c2=S)CC1 |  | two-fold dilution | IFO 3007 | 24 h | 36 °C |  | 1 µg/mL
CC[C@H](C)[C@H](N)C1=N[C@H](C(=O)N[C@@H](CC(C)C)C(=O)N[C@H](CCC(=O)O)C(=O)N[C@H](C(=O)N[C@H]2CCCCNC(=O)[C@H](CC(N)=O)NC(=O)[C@@H](CC(=O)O)NC(=O)[C@H](Cc3c[nH]cn3)NC(=O)[C@@H](Cc3ccccc3)NC(=O)[C@H]([C@@H](C)CC)NC(=O)[C@@H](CCCN)NC2=O)[C@@H](C)CC)CS1 |  |  | 168 | 18 h | 37 °C | ZnSO4 0.3 mM | 32 µg/mL
CC(=O)c1ccc2c(c1)sc1nc(=O)c(C#N)cn12 | microbial growth | broth dilution |  |  |  |  | < 66 µg/mL
CCN(CC)CCn1nc(C23CC4CC(CC(C4)C2)C3)n(C)c1=S |  | two-fold dilution | IFO 3007 | 24 h | 36 °C |  | 16 µg/mL
N#Cc1ccc2cccc(O)c2n1 | microbial growth | agar dilution | ATCC6633 |  |  |  | > 1500 µM
CCOC1(C)CC2C=CC3C(C)C=CC=CC(C)OC(=O)C(C)C(=O)C(Cl)(Cl)C(=O)C3C2C(C)C1O (centres unmarked) | microbial growth | broth dilution |  |  |  |  | > 3.2 µg/mL
O=C(c1ccc[nH]1)c1ccccc1O | microbial growth | broth dilution | 168 | 20 h |  |  | > 64 µg/mL
CC(C)CCOC1C(C)C2C(C=CC3C(C)C=CC=CC(C)OC(=O)C(C)C(=O)C(Cl)(Cl)C(=O)C32)CC1(C)O (centres unmarked) | microbial growth | broth dilution |  |  |  |  | 0.8 µg/mL
COc1ccccc1C(=O)c1[nH]c(Cl)c(Cl)c1-n1c(C(=O)c2ccccc2OC)cc(Cl)c1Cl | microbial growth | broth dilution | 168 | 20 h |  |  | 32 µg/mL
C/C(=N\NC1=NC(=O)CS1)c1ccc2c(c1)sc1nc(=O)c(C#N)cn12 | microbial growth | broth dilution |  |  |  |  | < 64 µg/mL
CCCCCC/C=C\CCCCCCC[C@@H](O)Cc1cc(O)cc(O)c1 | microbial growth | broth dilution | 168 |  |  |  | 8 µg/mL
COc1ccc(-c2csc(N/N=C(\C)c3ccc4c(c3)sc3nc(=O)c(C#N)cn34)n2)cc1 |  | broth microdilution |  |  |  |  | < 47 µg/mL
CCCCCCCCCCCCCc1cc(O)cc(O)c1 | microbial growth | broth dilution | 168 |  |  |  | 8 µg/mL

Excerpt of the above:
SMILES | observed | technique | strain | time | temperature | together with | MIC
CC1C=CC=CC(C)C2C=CC3CC(C)(O)C(F)C(C)C3C2C(=O)C(Cl)(Cl)C(=O)C(C)C(=O)O1 (centres unmarked) | microbial growth | broth dilution |  |  |  |  | 0.2 µg/mL
CC1C=CC=CC(C)C2C=CC3CC(C)(O)C(O[N+](=O)[O-])C(C)C3C2C(=O)C(Cl)(Cl)C(=O)C(C)C(=O)O1 (centres unmarked) | microbial growth | broth dilution |  |  |  |  | 0.025 µg/mL
COc1ccccc1C(=O)c1[nH]c(Cl)c(Cl)c1-n1c(C(=O)c2ccccc2OC)cc(Cl)c1Cl | microbial growth | broth dilution | 168 | 20 h |  |  | 32 µg/mL
CC[C@H](C)[C@H](N)C1=N[C@H](C(=O)N[C@@H](CC(C)C)C(=O)N[C@H](CCC(=O)O)C(=O)N[C@H](C(=O)N[C@H]2CCCCNC(=O)[C@H](CC(N)=O)NC(=O)[C@@H](CC(=O)O)NC(=O)[C@H](Cc3c[nH]cn3)NC(=O)[C@@H](Cc3ccccc3)NC(=O)[C@H]([C@@H](C)CC)NC(=O)[C@@H](CCCN)NC2=O)[C@@H](C)CC)CS1 |  |  | 168 | 18 h | 37 °C | ZnSO4 0.3 mM | 32 µg/mL
C/C(=N\Nc1nc(-c2ccc(Cl)cc2)cs1)c1ccc2c(c1)sc1nc(=O)c(C#N)cn12 | microbial growth | broth dilution |  |  |  |  | < 72 µg/mL
